Measured values gathered from unrelated publications.
Lines come from different studies, so protocols differ. Several values in a cell are separate wells, animals, samples, runs or records. Numbers after ± are the reported error.
Chain of UniProt P27361 (whole entry, looked up): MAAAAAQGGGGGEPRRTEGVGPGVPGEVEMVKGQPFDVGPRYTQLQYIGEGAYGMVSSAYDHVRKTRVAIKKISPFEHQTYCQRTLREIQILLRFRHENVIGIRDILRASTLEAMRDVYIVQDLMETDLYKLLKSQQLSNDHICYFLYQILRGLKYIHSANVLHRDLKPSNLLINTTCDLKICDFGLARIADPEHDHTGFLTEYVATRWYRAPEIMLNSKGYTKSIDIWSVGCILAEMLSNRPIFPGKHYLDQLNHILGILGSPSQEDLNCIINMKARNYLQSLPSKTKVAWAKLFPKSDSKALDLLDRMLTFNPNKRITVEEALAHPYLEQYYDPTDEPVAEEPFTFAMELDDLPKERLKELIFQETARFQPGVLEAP

Under “early apoptotic cells”, CC1CCC2C(C)C(OC(=O)CCC(=O)N3CCC(Nc4ccc(S(=O)(=O)NC(=O)c5ccc(N6CCN(CC7=C(c8ccc(Cl)cc8)CC(C)(C)CC7)CC6)cc5Oc5cnc6[nH]ccc6c5)cc4[N+](=O)[O-])CC3)OC3OC4(C)CCC1C32OO4 (stereo not drawn) is recorded as 58.3% (THP-1; annexin V/PI flow cytometry, measured: annexin V+/PI-; 1.6 µM, 24 h).
For CC(C)[C@H]1NC(=O)C[C@H]2/C=C/CCSSC[C@@H](NC1=O)C(=O)N[C@H](Cc1cccc3ccccc13)C(=O)NCC(=O)O2, the inhibition was -7.5% (PRKACB (Homo sapiens, UniProt P22694); enzyme activity, inhibitor; 10 µM).
For O=C1NC2(CC2)COc2ncc(F)cc2[C@H]2COCCN2c2ccn3ncc1c3n2, “organ-to-brain weight ratio” read 620 ± 107% (Sprague-Dawley rat, female, liver; oral, 10 mg/kg/day, 4 weeks, end of treatment).
For CC[C@H](C)[C@H](NC(=O)[C@H](C)NC(=O)CNC(=O)[C@H](Cc1ccccc1)NC(=O)[C@H](CC(N)=O)NC(=O)[C@H](CC(N)=O)NC(=O)[C@H](CO)NC(=O)[C@H](CO)NC(=O)[C@H](Cc1c[nH]cn1)NC(=O)[C@@H](NC(=O)[C@H](CC(C)C)NC(=O)[C@H](Cc1ccccc1)NC(=O)[C@H](CC(N)=O)NC(=O)[C@H](C)NC(=O)[C@H](CC(C)C)NC(=O)[C@H](CCCNC(=N)N)NC(=O)[C@H](CCC(N)=O)NC(=O)[C@@H](NC(=O)[C@H](C)NC(=O)[C@@H]1CSSC[C@H](NC(=O)[C@@H](N)CCCCN)C(=O)N[C@@H](CC(N)=O)C(=O)N[C@@H]([C@@H](C)O)C(=O)N[C@@H](C)C(=O)N[C@@H]([C@@H](C)O)C(=O)N1)[C@@H](C)O)C(C)C)C(=O)N[C@@H](CC(C)C)C(=O)N[C@@H](CO)C(=O)N[C@@H](CO)C(=O)N[C@H](C(=O)N[C@@H](CC(N)=O)C(=O)N[C@H](C(=O)NCC(=O)N[C@@H](CO)C(=O)N[C@@H](CC(N)=O)C(=O)N[C@H](C(=O)N[C@@H](Cc1ccc(O)cc1)C(N)=O)[C@@H](C)O)C(C)C)[C@@H](C)O, the Pearson coefficient was > 0.6 (RIN-m5F; measured: 20S proteasome α-4 subunit; 24 h).
The relative abundance of COc1ccccc1-c1n[nH]c2nc(NC3CCN(C(=O)Cc4ccc(F)cc4F)CC3)ncc12 is reported as 0.92 (bead binding, competition bead pull-down, measured: LINJ.29.1250; Leishmania donovani axenic amastigote extract; 10 µM; relative to: vehicle).
For Cc1cc(Oc2nc(N3CC[C@@H](c4ccncc4)C3)ncc2F)[nH]n1, the IC50 was 33.1 µM (JAR; cell proliferation).
CN(C)[C@H]1C[C@@]23CC[C@@]4(O2)C(=CC[C@]2(C)[C@@H](c5ccc6ccncc6c5)CC[C@H]24)C=C3[C@@H](O)[C@@H]1O gave an inhibition of -0.5% (MAPK3 (Homo sapiens, UniProt P27361); ATP probe labelling, inhibitor, KiNativ profiling; 0.1 µM).
CC(C)C12OC1C1OC13C1(C)CCC4=C(COC4=O)C1CC1OC13C2OC(=O)CCCOC1OC(CO)C(O)C(O)C1O (stereo not drawn) gave an IC50 of 1.63 µM (SCC-25; cell growth or viability, XTT; 47 h).
CC(C)C[C@H](NC(=O)[C@H](CC(=O)O)NC(=O)CNC(=O)[C@@H](N)CCCNC(=N)N)C(=O)N[C@@H](C)C(=O)N[C@H](C(=O)N[C@@H](CC(C)C)C(=O)N[C@@H](CCCNC(=N)N)C(=O)N[C@@H](CCC(N)=O)C(=O)N[C@@H](CC(C)C)C(=O)N[C@@H](C)C(=O)N[C@@H](CCC(N)=O)C(=O)N[C@@H](CCC(=O)O)C(=O)N[C@@H](CC(=O)O)C(=O)NCC(=O)N[C@H](C(=O)N[C@H](C(=O)NCC(=O)N[C@H](C(=O)N[C@@H](CCCNC(=N)N)C(=O)NCCOCCOCCOCCOCCOCCOCCOCCOCCOCCOCCOCCOCCC(=O)N[C@@H](CS)C(N)=O)C(C)C)C(C)C)C(C)C)[C@@H](C)O gave a selectivity ratio of 4.7 ± 0.23 (H1299 lung large cell carcinoma; cell binding, phage binding, measured: output/input phage; 10 min, 37 °C; relative to: control phage).
COc1ccccc1-c1n[nH]c2nc(N[C@H]3CC[C@H](NS(=O)(=O)CC(C)C)CC3)ncc12 gave a relative abundance of 2.05 (bead binding, competition bead pull-down, measured: LINJ.21.2130; Leishmania donovani extract; 10 µM; relative to: vehicle).
CC(C)(C)C(=O)OCOP(=O)(OCOC(=O)C(C)(C)C)C1CCCN(O)C1=O (stereo not drawn) gave a log GI50 of -6.08 log M (DU-145).
With CSCC[C@H](NC(=O)CNC(=O)[C@H](CCSC)NC(=O)[C@H](CS)NC(=O)[C@@H](N)CS)C(=O)N[C@@H](CS)C(=O)NCC(=O)N[C@@H](CCCCN)C(=O)O the p-ERK/ERK ratio was 0.66 ± 0.03 (RAW264.7; Western blot; concentration not given, 6 h pretreatment, added: LPS 30 min).
With CC(C)Cc1ccc(C(C)C(=O)[Se]CC(=O)Nc2cccc(C(F)(F)F)c2)cc1 (stereo not drawn) the CC50 was 12 µM (NCI60 melanoma subpanel; cytotoxicity, inhibitor; five-dose).
CC(C)CC(O)(CC(C)C)c1cn(C(=O)N2CCCC2)nn1 gave a protein level of 1.24 and 1.08 and 0.94 (mouse T-cells; SILAC proteomics, measured: Larp1; 1 nM, 6 h, single peptides, unit not given; relative to: DMSO).
The TGI of CC(C)Cc1ccc(C(C)C(=O)[O-])cc1.CC(C)Cc1ccc(C(C)C(=O)[O-])cc1.O.[Cu+2].c1ccncc1.c1ccncc1 (stereo not drawn) is reported as 40 ± 0.8 µM (OVCAR-3; MTT; 48 h).

For quick reference, copied from above:
CC(C)CC(O)(CC(C)C)c1cn(C(=O)N2CCCC2)nn1 gave a protein level of 1.24 and 1.08 and 0.94 (mouse T-cells; SILAC proteomics, measured: Larp1; 1 nM, 6 h, single peptides, unit not given; relative to: DMSO).
CC(C)C12OC1C1OC13C1(C)CCC4=C(COC4=O)C1CC1OC13C2OC(=O)CCCOC1OC(CO)C(O)C(O)C1O (stereo not drawn) gave an IC50 of 1.63 µM (SCC-25; cell growth or viability, XTT; 47 h).
